Experimental data pooled from the literature.
A part holds a random share of what one study measured.
Sequence of UniProt P05771 (whole entry, looked up): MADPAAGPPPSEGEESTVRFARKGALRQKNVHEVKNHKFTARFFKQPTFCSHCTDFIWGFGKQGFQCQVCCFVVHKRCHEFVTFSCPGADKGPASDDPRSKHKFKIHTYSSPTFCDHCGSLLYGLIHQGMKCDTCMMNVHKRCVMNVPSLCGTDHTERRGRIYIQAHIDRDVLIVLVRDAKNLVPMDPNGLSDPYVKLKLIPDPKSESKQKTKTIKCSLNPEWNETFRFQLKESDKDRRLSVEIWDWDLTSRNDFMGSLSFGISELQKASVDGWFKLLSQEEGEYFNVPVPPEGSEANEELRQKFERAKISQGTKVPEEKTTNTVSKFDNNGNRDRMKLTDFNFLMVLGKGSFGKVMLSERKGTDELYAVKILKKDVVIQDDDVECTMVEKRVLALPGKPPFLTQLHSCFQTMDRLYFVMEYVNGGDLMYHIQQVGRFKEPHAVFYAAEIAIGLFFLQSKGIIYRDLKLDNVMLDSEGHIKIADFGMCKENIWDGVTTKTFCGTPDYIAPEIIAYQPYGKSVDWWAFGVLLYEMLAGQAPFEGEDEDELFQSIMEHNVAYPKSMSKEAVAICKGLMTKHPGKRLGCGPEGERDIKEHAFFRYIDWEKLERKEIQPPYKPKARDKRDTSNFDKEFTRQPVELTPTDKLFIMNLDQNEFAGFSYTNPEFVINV

Set 1
Target: Histone acetyltransferase KAT6A, winged helix 1, GST fusion (KAT6A, Homo sapiens, UniProt Q92794, residues 1-85)
Technique: protein binding microarray
Molecule type: double-stranded DNA, one strand shown
Matrix: in vitro
Tested at: not given
Setting: 8-mer, flanks averaged, mean of 2 arrays, mostly near background
Relative to: not given
Reading: higher = stronger binding
Target sequence (chain): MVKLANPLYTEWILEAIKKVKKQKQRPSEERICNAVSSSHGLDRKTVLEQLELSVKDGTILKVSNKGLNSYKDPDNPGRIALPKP
Sequence | E-score
CAATCGCC | 0.138
CTCCTCGA | -0.266
ATGCGCAT | 0.258
AGGAAACT | -0.241
TGCGATAA | -0.168
TACATCGA | -0.0287
AAGTACTC | 0.0352
ATTCCCAA | -0.271

Set 2
Target: TAR DNA-binding protein 43, full length, His tag (TARDBP, Homo sapiens, UniProt Q13148, residues 1-414)
Technique: RNA Bind-n-Seq
Molecule type: RNA
Matrix: in vitro
Tested at: 20 nM
Setting: 6-mer, flanks averaged, single round
With: 150 mM KCl
Relative to: input library
Reading: higher = stronger binding
Sequence | 6-mer enrichment (R)
AUUACG | 0.626
CUUACG | 0.628
UACCGA | 0.632
GCAGCA | 1
CUCCUG | 0.628
UCUGGA | 0.776
CCGUCC | 0.626
CACCAU | 0.683

Further values, each from its own experiment
Molecule | tested on | test | test system | conditions | how to read | measurement | value
NAT10 (Homo sapiens, UniProt Q9H0A0) | ESF1 (Homo sapiens, UniProt Q9H501) | cross-linking MS | cell fractions | with: DMTMM | – | cross-linked residues | D244 to K822
Cc1nc(-c2ccccc2)c(-c2ccncc2)o1 | Protein kinase C beta type, isoform beta-I (PRKCB, Homo sapiens, UniProt P05771) | enzyme activity, inhibitor | – | 0.5 µM | relative to: control | remaining activity | 95.2%
CCT2 (Homo sapiens, UniProt P78371) | CCT7 (Homo sapiens, UniProt Q99832) | cross-linking MS | cell fractions | with: DSSO | – | cross-linked residues | K527 to K55
SEPTIN7 (Homo sapiens, UniProt Q16181) | SEPTIN9 (Homo sapiens, UniProt Q9UHD8) | cross-linking MS | – | hits only | – | interaction screen | cross-linked

Excerpt of the above (further values, each from its own experiment):
Molecule | tested on | test | test system | conditions | how to read | measurement | value
Cc1nc(-c2ccccc2)c(-c2ccncc2)o1 | Protein kinase C beta type, isoform beta-I (PRKCB, Homo sapiens, UniProt P05771) | enzyme activity, inhibitor | – | 0.5 µM | relative to: control | remaining activity | 95.2%
CCT2 (Homo sapiens, UniProt P78371) | CCT7 (Homo sapiens, UniProt Q99832) | cross-linking MS | cell fractions | with: DSSO | – | cross-linked residues | K527 to K55
SEPTIN7 (Homo sapiens, UniProt Q16181) | SEPTIN9 (Homo sapiens, UniProt Q9UHD8) | cross-linking MS | – | hits only | – | interaction screen | cross-linked
